Experimental data gathered from unrelated publications.
Parts stem from different laboratories: compare values within a part only.

Series 1
Target: Runt-related transcription factor 3, Runt domain (RUNX3, Homo sapiens, UniProt Q13761, residues 53-186)
Sequence of UniProt Q13761 (53-186, looked up): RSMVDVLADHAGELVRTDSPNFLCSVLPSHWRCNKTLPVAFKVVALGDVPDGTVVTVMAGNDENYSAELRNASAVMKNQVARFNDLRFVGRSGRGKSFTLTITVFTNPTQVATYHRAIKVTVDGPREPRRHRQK
Technique: protein-binding microarray
Form: hairpin DNA
Matrix: in vitro
Tested at: not given
Setting: whole hairpin DNA, median over replicate spots
Reference: not given
Reading: higher = stronger binding
Oligonucleotide	median fluorescence [a.u.]
CTCAGTCGTGTGGGCTGGACTCCTGTCCAGCCCACACGACTGAGACACTC	4170
GAGGCCCAACCGCACCAGCCTCCTGGCTGGTGCGGTTGGGCCTCACACTC (5mC at 15)	6600
CTCAGTTCTGCGGGCTGGACTCCTGTCCAGCCCGCAGAACTGAGACACTC (5mC at 11)	4450
CTCAGTTCGGTGGGCTGGACTCCTGTCCAGCCCACCGAACTGAGACACTC (5mC at 36)	4150
GAGGCCCAACCGCCGCAGCCTCCTGGCTGCGGCGGTTGGGCCTCACACTC (5mC at 14 30)	6620
GAGGCCCGTTGCGGTTGGCCTCCTGGCCAACCGCAACGGGCCTCACACTC (5mC at 7)	9220
GAGGCCTGTCCGGGTTGGCCTCCTGGCCAACCCGGACAGGCCTCACACTC (5mC at 11)	4800
GAGGCCCCGCCGCAACAGCCTCCTGGCTGTTGCGGCGGGGCCTCACACTC (5mC at 36)	6340
CTCAGTTGTGTGGGCTGGACTCCTGTCCAGCCCACACAACTGAGACACTC (5mC at 37)	4170
CTCAGTTATGTGGGCTGGACTCCTGTCCAGCCCACATAACTGAGACACTC	3950
GAGGCCTGTCGCGGTTGGCCTCCTGGCCAACCGCGACAGGCCTCACACTC (5mC at 34)	6190
GAGGCCCAACAGCAACAGCCTCCTGGCTGTTGCTGTTGGGCCTCACACTC	4870

Series 2
Target: Histone acetyltransferase KAT6A, winged helix 1, GST fusion (KAT6A, Homo sapiens, UniProt Q92794, residues 1-85)
Technique: protein binding microarray
Form: double-stranded DNA, one strand shown
Matrix: in vitro
Tested at: not given
Setting: 8-mer, flanks averaged, mean of 2 arrays, mostly near background
Reference: not given
Reading: higher = stronger binding
Target sequence (chain): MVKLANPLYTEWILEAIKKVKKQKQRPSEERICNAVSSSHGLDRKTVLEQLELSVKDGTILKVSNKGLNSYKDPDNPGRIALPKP
Oligonucleotide	E-score
CGAACTGC	0.0265
GTAACGGA	0.157
AACATATC	0.104
CAATCCGC	0.222
CCCAAAAA	-0.187
ATACTTTG	-0.188
CCGAAAAC	0.0135
AGTTTGCG	0.125
TGAATACA	-0.141
CACCCGGC	0.359
ACAATTAT	0.061
CTTACATC	-0.217
CCCTTTTA	-0.165
CAAAGCGC	0.345
ACCGTCAC	0.0843
CTACGAAC	-0.132
GTCTTACA	-0.0643
GAGGCCGA	0.116
CCTTTTAC	-0.0874
AGTCCCGG	0.217
CAAGAAAC	-0.0437
CTGATTAA	-0.121
AAGCATCT	-0.0304
CAAGGTAA	0.0288
CTGCCATC	-0.136

Series 3
Target: Interferon regulatory factor 7, full length, phosphomimetic (IRF7, Homo sapiens, UniProt Q92985, residues 1-503, S471D/S472D/S475D/S476D/S477D/S483D/S484D/S487D)
Sequence of UniProt Q92985 (whole entry, unmodified, looked up): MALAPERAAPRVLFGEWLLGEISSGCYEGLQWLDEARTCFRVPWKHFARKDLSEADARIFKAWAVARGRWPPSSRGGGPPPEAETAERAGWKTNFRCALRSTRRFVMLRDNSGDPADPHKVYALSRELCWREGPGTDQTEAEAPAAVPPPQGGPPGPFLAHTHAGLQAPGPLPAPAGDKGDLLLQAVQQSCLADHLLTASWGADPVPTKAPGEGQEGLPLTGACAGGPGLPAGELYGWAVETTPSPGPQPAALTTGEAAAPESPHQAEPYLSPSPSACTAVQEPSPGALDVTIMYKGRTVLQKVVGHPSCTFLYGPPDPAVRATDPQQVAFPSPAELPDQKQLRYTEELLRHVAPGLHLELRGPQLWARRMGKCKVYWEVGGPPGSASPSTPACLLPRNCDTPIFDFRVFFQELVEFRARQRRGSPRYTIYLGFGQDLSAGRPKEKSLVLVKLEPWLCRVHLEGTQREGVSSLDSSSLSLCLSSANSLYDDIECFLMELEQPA
Technique: protein-binding microarray
Form: double-stranded DNA, one strand shown
Matrix: in vitro
Tested at: 2200 nM top
Setting: 60-bp whole probe
Added: salmon DNA 0.4 mg/ml
Reference: random background probes
Reading: higher = stronger binding
Constant ends, left off below: GCCTAGCAC … GTCTTGATTCGCTTGACGCTGCTG
Oligonucleotide	fitted relative affinity [z-score]
TTAGGACTGGACTTCCGGTTAGTGCTA	0.0944
TTAGGTCTGGGGACTGGGTTAGTGCTA	-0.78
TTAGGACTGGACTATCCGTTAGTGCTA	-0.333
GACGATATCGGGTATCTAGACGTGCTA	0.209
TCAAATCTCTCTTCACAACTGTGCTAG	0.808
TTAGGTCTCGGTTTCGGTTAGTGCTAG	7.13
TTAGGTCTCCTTAACCTTTAGTGCTAG	0.134
TCAATCCTCTCACCTCAGACTGTGCTA	1.15
TCAGGTTAAAATTTTGCACTGTGCTAG	-0.0896
TATTGTGTCAACTTTCTCTGCGTGCTA	1.05
TCAATTCTCATTTCCAAACTGTGCTAG	1.8
GACGGACTGGACACTGGGGCCGTGCTA	-0.83
GACGATATCAGACTGGAGGCGTGCTAG	-0.0209
TTAGATTTCGGGACTGGATCAGTGCTA	1.13
GGGGGAAATGGGAAACCCGGGGTGCTA	0.557
TTAGGACTGGGTCTCGGTGAGTGCTAG	-0.733
GACGGACTGGGACTGGGGACGTGCTAG	-0.959
TTAGCTTTCCTTTCCCTTTAGTGCTAG	5.53
CTGCAGCCCACTCCTGAACAGTGCTAG	-0.0682

Series 4
Target: PABPC1L2, full length, GST fusion (mouse, UniProt A0ABA7IW68)
Technique: RNAcompete
Form: RNA
Matrix: in vitro
Tested at: 20 nM
Setting: 7-mer, probes averaged, single round
Reference: mean of 7-mers
Reading: higher = stronger binding
Residues (chain): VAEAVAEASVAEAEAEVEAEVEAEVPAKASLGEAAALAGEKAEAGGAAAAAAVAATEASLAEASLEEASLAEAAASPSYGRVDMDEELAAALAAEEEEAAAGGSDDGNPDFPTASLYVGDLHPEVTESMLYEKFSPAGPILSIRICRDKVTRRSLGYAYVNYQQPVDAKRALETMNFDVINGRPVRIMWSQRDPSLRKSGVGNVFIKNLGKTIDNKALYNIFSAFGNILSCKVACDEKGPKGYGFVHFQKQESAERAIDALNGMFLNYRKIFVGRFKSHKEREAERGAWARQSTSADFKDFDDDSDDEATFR
Oligonucleotide	7-mer Z-score
AGCAAUA	0.119
GAUCCCG	-0.226
GUCGGUG	-0.0681
UGAACAU	-0.0283
CGCAGCG	-0.0591
GGAGAAG	0.157
AUGACUG	-0.146
GCUGUCC	-0.2
GCAGGUC	-0.0536
GCAAUGU	-0.113
CGCUCGC	-0.356
CUACAUG	-0.13
GGGACCU	0.0805
CAACGGG	0.253
UUCGCUU	-0.499
UAAUGGA	-0.0264
CUCAUCA	-0.338

Some of these lines once more (series 1):
Oligonucleotide	median fluorescence [a.u.]
CTCAGTCGTGTGGGCTGGACTCCTGTCCAGCCCACACGACTGAGACACTC	4170
GAGGCCCAACCGCACCAGCCTCCTGGCTGGTGCGGTTGGGCCTCACACTC (5mC at 15)	6600
CTCAGTTCTGCGGGCTGGACTCCTGTCCAGCCCGCAGAACTGAGACACTC (5mC at 11)	4450
CTCAGTTCGGTGGGCTGGACTCCTGTCCAGCCCACCGAACTGAGACACTC (5mC at 36)	4150
GAGGCCCAACCGCCGCAGCCTCCTGGCTGCGGCGGTTGGGCCTCACACTC (5mC at 14 30)	6620
GAGGCCCGTTGCGGTTGGCCTCCTGGCCAACCGCAACGGGCCTCACACTC (5mC at 7)	9220
GAGGCCTGTCCGGGTTGGCCTCCTGGCCAACCCGGACAGGCCTCACACTC (5mC at 11)	4800
